Assay results pooled from the literature.
Every numbered part comes from another study and shows a few of its results, in no order. Substitutions count along the parent as printed.

Series 1
Target: ABI1, truncated, D143A, DHFR fusion (Arabidopsis thaliana)
Technique: DHFR PCA, deep sequencing
Sample: yeast
Setting: methotrexate growth selection, single substitutions
Together with: (+)-ABA 0.0091 µM
Relative to: wild-type fitted maximum
Reading: higher = stronger binding
Quantity: relative binding score
Starting sequence: PYL1, truncated, DHFR fusion (Arabidopsis thaliana); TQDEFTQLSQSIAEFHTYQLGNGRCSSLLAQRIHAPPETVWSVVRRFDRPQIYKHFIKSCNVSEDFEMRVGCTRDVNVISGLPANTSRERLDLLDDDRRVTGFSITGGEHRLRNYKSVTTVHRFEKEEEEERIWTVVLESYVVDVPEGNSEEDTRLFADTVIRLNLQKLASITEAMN; partner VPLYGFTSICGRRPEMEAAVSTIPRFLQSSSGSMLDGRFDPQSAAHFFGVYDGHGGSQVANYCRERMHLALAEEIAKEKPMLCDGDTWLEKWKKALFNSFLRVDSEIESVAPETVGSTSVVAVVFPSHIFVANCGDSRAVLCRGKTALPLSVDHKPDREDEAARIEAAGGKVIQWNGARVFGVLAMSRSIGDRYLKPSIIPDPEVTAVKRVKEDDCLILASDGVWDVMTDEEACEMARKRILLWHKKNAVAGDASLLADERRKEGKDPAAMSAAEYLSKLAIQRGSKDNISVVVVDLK
R74A: -2.27%
G148A: 2.76%
S150W: 0.178%
L138Q: -3.2%
T160K: 3.18%
T17L: -1.77%
R69L: 2.51%
S27P: 4.6%

Series 2
Target: Sal-like protein 4, full length isoform B (SALL4, Homo sapiens, UniProt Q9UJQ4-2, residues 1-616)
Technique: universal PBM
Form: double-stranded DNA, one strand shown
Sample: in vitro
Tested at: not given
Setting: 8-mer, flanks averaged, mean of replicates
Reading: higher = stronger binding
Quantity: E-score
Construct (chain): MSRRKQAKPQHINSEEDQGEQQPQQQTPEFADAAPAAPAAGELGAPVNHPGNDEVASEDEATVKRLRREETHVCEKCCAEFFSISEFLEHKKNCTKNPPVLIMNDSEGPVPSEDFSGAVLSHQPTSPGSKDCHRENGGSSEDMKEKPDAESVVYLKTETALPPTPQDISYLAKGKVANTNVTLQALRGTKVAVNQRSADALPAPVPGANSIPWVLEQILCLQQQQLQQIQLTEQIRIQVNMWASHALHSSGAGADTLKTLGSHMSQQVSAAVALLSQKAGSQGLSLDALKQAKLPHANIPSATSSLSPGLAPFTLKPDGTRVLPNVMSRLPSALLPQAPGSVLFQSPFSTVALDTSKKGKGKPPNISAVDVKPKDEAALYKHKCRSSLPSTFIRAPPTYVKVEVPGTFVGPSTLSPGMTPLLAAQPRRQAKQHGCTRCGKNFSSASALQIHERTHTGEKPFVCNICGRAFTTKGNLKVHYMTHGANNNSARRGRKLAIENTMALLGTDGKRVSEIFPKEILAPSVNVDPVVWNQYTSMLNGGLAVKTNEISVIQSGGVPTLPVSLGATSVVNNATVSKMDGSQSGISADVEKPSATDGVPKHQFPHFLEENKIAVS
GAGGGTGA: -0.162
ACTGACAT: 0.0903
GTGGGGCA: -0.328
CAGTTATC: 0.102
GAGAATCA: 0.00653
ACATCCGC: -0.107
CCGTTAGG: -0.158
AGAGGACG: -0.115

Series 3
Target: TAR DNA-binding protein 43, full length, His tag (TARDBP, Homo sapiens, UniProt Q13148, residues 1-414)
Technique: RNA Bind-n-Seq
Form: RNA
Sample: in vitro
Tested at: 20 nM
Setting: 6-mer, flanks averaged, single round
Together with: 150 mM KCl
Relative to: input library
Reading: higher = stronger binding
Quantity: 6-mer enrichment (R)
UUGUCC: 0.63
CCACUU: 0.609
UCGUCC: 0.641
ACACUA: 0.632
AAGAUU: 0.566
CCGCUG: 0.809
GAUAUA: 0.657
AAACAC: 0.604

Single results of other studies
CC(=O)Nc1c(F)cc(C(=O)N[C@H]2CC[C@H](O)CC2)cc1O[C@@H](C)c1ccccc1
healthy nuclei (HEK293T; high-content imaging; concentration not given, 24 h, recommended concentration): 42%

A few entries again (single results of other studies):
CC(=O)Nc1c(F)cc(C(=O)N[C@H]2CC[C@H](O)CC2)cc1O[C@@H](C)c1ccccc1
healthy nuclei (HEK293T; high-content imaging; concentration not given, 24 h, recommended concentration): 42%
